Assay results of several laboratories.
Protocols differ between the studies behind these lines. ± marks the error that the study gave.

Compound	assay	test system	conditions	how to read	Cmax
CC#CC(=O)N1CCC[C@H]1c1nc(-c2ccc(C(=O)Nc3ccccn3)cc2)c2c(N)nccn12		human, plasma	oral, 50 mg single dose		166 ng/mL
C[C@H](O)c1cc(C(=O)N[C@@H](C)Cn2ccc(-c3ccc(C#N)c(Cl)c3)n2)n[nH]1		healthy male human, plasma	intravenous infusion, 100 µg 14C-labelled, 15 min infusion, microtracer, geometric mean		1940 pg eq/mL
CCn1cc(C(=O)N2CCOCC2)c(=O)c2cc(NC3Cc4ccccc4C3)cnc21		human, fasted	oral suspension, 150 mg single dose, arithmetic mean		294 ng/mL
C[C@H](CCC(=O)NCC(=O)O)[C@H]1CC[C@H]2[C@@H]3CC[C@@H]4C[C@H](OS(=O)(=O)O)CC[C@]4(C)[C@H]3CC[C@]12C		human, plasma	concentration not given, endogenous control diurnal		1550 ± 350 nM
C#C[C@]1(CO)O[C@@H](n2cnc3c(N)nc(F)nc32)C[C@@H]1O		human, plasma	oral, 100 mg, single dose, geometric mean		3230 nM
FC(F)(F)c1ccc(CNc2ccc(Cc3c[nH]c4ncc(Cl)cc34)cn2)cn1	refers to: total radioactivity	healthy human male, plasma	oral, 400 mg [14C]-labelled		5590 ng/mL
Cn1ncnc1[C@H]1c2n[nH]c(=O)c3cc(F)cc(c23)N[C@@H]1c1ccc(F)cc1		human patients, plasma	oral, 400 µg/m2 twice daily day 1, day 5, dose level DL2, median, added: temozolomide 20 mg/m2 daily days 2-6		10.1 ng/mL
N#CCNC(=O)c1ccc(-c2ccnc(Nc3ccc(N4CCOCC4)cc3)n2)cc1		healthy human volunteers, plasma	oral, dose not given, day 12, without rifampin		487 ng/mL
Cc1noc(C)c1-c1cc(C(O)(c2ccccn2)c2ccccn2)c2nc(C3CC3)[nH]c2c1		human patients, plasma	oral, 3 mg, cycle 1 day 8, monotherapy		296 ng/mL
C[C@H](CCC(=O)O[C@@H]1O[C@H](C(=O)O)[C@@H](O)[C@H](O)[C@H]1O)[C@H]1CC[C@H]2[C@@H]3[C@H](O)C[C@@H]4C[C@H](O)CC[C@]4(C)[C@H]3CC[C@]12C		human, plasma	concentration not given, endogenous control diurnal		32.1 ± 5.2 nM
CN1C(=O)[C@@H](NC(=O)c2nnc(Cc3ccccc3)[nH]2)COc2cccnc21		human, plasma	oral, 200 mg once daily, day 14, geometric mean		3160 ng/mL
C[C@@H](O[C@H]1OCCN(Cc2n[nH]c(=O)[nH]2)[C@H]1c1ccc(F)cc1)c1cc(C(F)(F)F)cc(C(F)(F)F)c1		human, plasma	oral, 240 mg single dose, converted from mass concentration		7000 nM
N[C@]1(C(=O)O)[C@H]2[C@@H](C[C@@H]1F)[C@@H]2C(=O)O		human, both sexes, plasma	oral, 20 mg, fed, single dose		59.9 ng/mL
Cc1ccc(C(=O)N(CCCN)C(c2nc3snc(C)c3c(=O)n2Cc2ccccc2)C(C)C)cc1 (stereo not drawn)		human patients, plasma	intravenous, 10 mg/day, day 3 of induction course, geometric mean		123 ng/mL
CNC(=O)n1ccc2cc(Oc3ccnc(NC(=O)c4ccc(C5CCN(CCO)CC5)cc4)c3)c(OCCOC)cc21		healthy human, plasma	oral, 35 mg, geometric mean, added: rabeprazole 20 mg		7.27 ng/mL
N[C@](CO)(CCc1ccc(Sc2cccc(OCc3ccccc3)c2)cc1Cl)COP(=O)(O)O		human fasted, whole blood	3 mg MOC, added: cyclosporin 100 mg b.i.d.		1.81 ng/mL
CN1CC[C@@H](NC(=O)Nc2ccc(C#N)cc2)C[C@@H]1c1nc2ccccc2[nH]1		human	oral, 100 mg once daily, induction cycle day 10, given alone		1180 ng/mL
Nc1ccn([C@@H]2O[C@H](CO)[C@@H](O)C2(F)F)c(=O)n1	HPLC-UV	human, plasma	intravenous, 1000 mg/m^2, median, after paricalcitol		8530 ng/mL
Nc1ccc(-c2nc([C@H]3CCc4cc(-c5cc(Cl)ccc5-n5cnnn5)cc(=O)n43)c(F)[nH]2)c(F)n1		human, plasma	oral, 250 mg once daily, day 14		3700 ng/mL
C=CC(=O)N1C[C@H](Nc2ncnc3[nH]ccc23)CC[C@@H]1C		human, plasma	oral, 50 mg single dose, alone without rifampicin		272 ng/mL
COc1cc(Nc2c(C#N)cnc3cc(OCCCN4CCN(C)CC4)c(OC)cc23)c(Cl)cc1Cl	refers to: total drug	human, severe hepatic impairment, plasma	single dose, NCI classification		24.6 ng/mL
O=C(Nc1cnccc1Cl)N1CCN(Cc2ccc3c(c2)OC(F)(F)O3)CC1		human healthy young women, plasma	oral, 100 mg once daily, day 10, multiple dose mean		949 ng/mL
CC[C@H](C)[C@H](NC(=O)[C@H](Cc1ccccc1)NC(=O)[C@H](CCC(=O)O)NC(=O)[C@H](CCCCNC(=O)COCCOCCNC(=O)COCCOCCNC(=O)CC[C@H](NC(=O)CCCCCCCCCCCCCCCCC(=O)O)C(=O)O)NC(=O)[C@H](C)NC(=O)[C@H](C)NC(=O)[C@H](CCC(N)=O)NC(=O)CNC(=O)[C@H](CCC(=O)O)NC(=O)[C@H](CC(C)C)NC(=O)[C@H](Cc1ccc(O)cc1)NC(=O)[C@H](CO)NC(=O)[C@H](CO)NC(=O)[C@@H](NC(=O)[C@H](CC(=O)O)NC(=O)[C@H](CO)NC(=O)[C@@H](NC(=O)[C@H](Cc1ccccc1)NC(=O)[C@@H](NC(=O)CNC(=O)[C@H](CCC(=O)O)NC(=O)C(C)(C)NC(=O)[C@@H](N)Cc1cnc[nH]1)[C@@H](C)O)[C@@H](C)O)C(C)C)C(=O)N[C@@H](C)C(=O)N[C@@H](Cc1c[nH]c2ccccc12)C(=O)N[C@@H](CC(C)C)C(=O)N[C@H](C(=O)N[C@@H](CCCNC(=N)N)C(=O)NCC(=O)N[C@@H](CCCNC(=N)N)C(=O)NCC(=O)O)C(C)C		human, plasma	14 mg, model-estimated mean		20.5 nM
CC(C)CCC[C@@H](C)[C@H]1CC[C@H]2[C@@H]3C(O)CC4=CC(=O)CC[C@]4(C)[C@H]3CC[C@]12C (stereo partly drawn)		human, plasma	oral, dose not given	reference: untreated	118 ± 14 nM

Compound	assay	test system	conditions	how to read	Cmax
CC(C)(Sc1ccncc1-c1ccc(C#N)c2ccccc12)C(=O)O		human, plasma	oral, 5 mg once daily, added: febuxostat 10 mg		11 ng/mL
Cn1cncc1[C@@](N)(c1ccc(Cl)cc1)c1ccc2c(c1)c(-c1cccc(Cl)c1)cc(=O)n2C		healthy human subjects, plasma	oral, 50 mg, fed (high-fat meal)		136 ng/mL
CNC(=O)c1c(C)oc2cc(Oc3ncnc4cc(OC)c(OC)cc34)ccc12		human, mild hepatic impairment, plasma	oral, 2 mg, single dose		136 ng/mL
CC(=O)O[C@H]1C(=O)[C@@]2(C)[C@H]([C@H](OC(=O)c3ccccc3)[C@]3(O)C[C@H](OC(=O)[C@H](O)[C@@H](NC(=O)c4ccccc4)c4ccccc4)C(C)=C1C3(C)C)[C@]1(OC(C)=O)CO[C@@H]1C[C@@H]2O	noncompartmental analysis	human cancer patients, plasma	intravenous infusion, 60 mg/m^2, cycle 1 day 15, added: daily oral co-medication		1920 ng/mL
Cc1cc(-c2nccc3c2ccn3CC(=O)Nc2ccc(-c3cnccn3)cn2)ccn1		human, plasma	oral, 7 mg single dose		57.4 nM
CC[C@H](C)[C@@H]([C@@H](CC(=O)N1CCC[C@H]1[C@H](OC)[C@@H](C)C(=O)N[C@@H](Cc1ccccc1)C(=O)NCCCO)OC)N(C)C(=O)[C@@H](NC(=O)[C@H](C(C)C)N(C)C)C(C)C		human patients, plasma	intravenous, 20 mg/m², cycle 1 geometric mean		3.31 ng/mL
C=CC(=O)NC1CCN(c2ncc3ncnc(Nc4ccc(Oc5ccc6c(c5)ncn6C)c(C)c4)c3n2)CC1		human, male, plasma	oral, 30 mg single dose, fasted, geometric mean		399 nM
NCCCS(=O)(=O)O		human, plasma	oral, 171 mg twice daily, day 7, capsule, fasted, dosed days 2-7		815 ng/mL
CC(C)NC(=O)COc1cccc(-c2nc(Nc3ccc4[nH]ncc4c3)c3ccccc3n2)c1		human male, plasma	oral, dose not given, day 12, adjusted geometric mean, added: dabigatran etexilate		2180 ng/mL
CN[C@@H](C)C(=O)N[C@H]1CN(S(=O)(=O)c2cccc(S(=O)(=O)N3CC[C@H]4CC[C@@H](C(=O)NC(c5ccccc5)c5ccccc5)N4C(=O)[C@@H](NC(=O)[C@H](C)NC)C3)c2)CC[C@H]2CC[C@@H](C(=O)NC(c3ccccc3)c3ccccc3)N2C1=O	LC-MS/MS, noncompartmental	human, plasma	30 mg, cycle 1 day 1		1400 ± 513 ng/mL
Cc1cn(C(=O)c2c(-c3c(Cl)cc(Cl)cc3Cl)noc2C(C)(C)F)c2cccc(/C=C/C(=O)O)c12		human patients	250 mg bid, cycle 1 day 1		10200 ng/mL
CC(C)n1nc(-c2ccc3oc(N)nc3c2)c2c(N)ncnc21		human, plasma	oral, 2 mg once daily, cycle 1 day 15		33.4 ng/mL
O=C(O)CCC(=O)O.[2H]C([2H])([2H])Oc1cc(C)c2[nH]ccc2c1CN1CC[C@@H](C2CC2)C[C@H]1c1ccc(C(=O)O)cc1		healthy humans, fasted, plasma	oral, 200 mg, single dose		3140 ng/mL
COc1ccc2nc([S@@+]([O-])Cc3ncc(C)c(OC)c3C)[nH]c2c1		human, dried blood spots	oral, 10 mg omeprazole, added: voriconazole		193 ng/mL
Nc1c2c(cc3c1CCC3)CCC2		human, plasma	oral, 450 mg of GDC-2394, single ascending dose		21.8 ng/mL
CC1(COc2ccc3c(c2)ncn3-c2ccc3cccc(N4CCC(N)CC4)c3n2)COC1		human patients, recurrent/progressive HGG or DIPG, serum	oral, 220 mg/m^2, day 28, median		3830 nM
CCOc1c([C@H](C)n2nc(C)c3c(N)ncnc32)cc(Cl)c(F)c1[C@@H]1CNC(=O)C1		human Hodgkin lymphoma patients	oral, 20 mg, day 15		1930 nM
N#C[C@H](C[C@@H]1CCCNC1=O)NC(=O)[C@H](CC1CC1)NC(=O)c1cc2cccc(Cl)c2[nH]1		human, plasma	700 mg twice daily, day 5		3780 ng/mL
Cc1cc(C)c(CNC(=O)c2cc(Cl)c3c(c2C)O[C@@](C)([C@H]2CC[C@H](N(C)C)CC2)O3)c(=O)[nH]1	geometric LS mean	healthy male humans, plasma	oral, 25 mg, alone, itraconazole DDI study reference		105 ng/mL
CC(C)n1c(Nc2cccnc2)nc2cnc(Nc3ccc(N4CCN(C)CC4)cc3)nc21		human, male, plasma	oral, 100 mg, day 1, single dose alone		44 ng/mL
C[C@H](CCC(=O)O)[C@H]1CC[C@H]2[C@@H]3[C@H](O)C[C@@H]4C[C@H](O)CC[C@]4(C)[C@H]3CC[C@]12C		human, plasma	oral, dose not given	reference: untreated	1240 ± 293 nM
Cc1nc(Nc2ncc(C(=O)Nc3c(C)cccc3Cl)s2)cc(N2CCN(CCO)CC2)n1		human patients	oral, 65 mg/m^2, day 42, added: vandetanib		106 ± 83 ng/mL
Cn1nnc2c(C(N)=O)ncn2c1=O		human patients, plasma	oral, 40 mg/m2, day 5, dose level DL5, median, added: talazoparib 600 µg/m2		1600 ng/mL
CC(C)c1nc(N(C)S(C)(=O)=O)nc(-c2ccc(F)cc2)c1/C=C/[C@@H](O)C[C@@H](O)CC(=O)O		human, plasma	oral, 10 mg, given alone		2.2 ng/mL

A few entries again:
Compound	assay	test system	conditions	how to read	Cmax
Cn1cncc1[C@@](N)(c1ccc(Cl)cc1)c1ccc2c(c1)c(-c1cccc(Cl)c1)cc(=O)n2C		healthy human subjects, plasma	oral, 50 mg, fed (high-fat meal)		136 ng/mL
COc1ccc2nc([S@@+]([O-])Cc3ncc(C)c(OC)c3C)[nH]c2c1		human, dried blood spots	oral, 10 mg omeprazole, added: voriconazole		193 ng/mL
Nc1c2c(cc3c1CCC3)CCC2		human, plasma	oral, 450 mg of GDC-2394, single ascending dose		21.8 ng/mL
CC(C)NC(=O)COc1cccc(-c2nc(Nc3ccc4[nH]ncc4c3)c3ccccc3n2)c1		human male, plasma	oral, dose not given, day 12, adjusted geometric mean, added: dabigatran etexilate		2180 ng/mL
Cc1cc(-c2nccc3c2ccn3CC(=O)Nc2ccc(-c3cnccn3)cn2)ccn1		human, plasma	oral, 7 mg single dose		57.4 nM
